Experimental data pooled from the literature.
Numbered parts are unrelated; each lists some results of a single study. Several values in a cell are separate wells, animals, samples, runs or records.
UniProt P42680, sequence (whole entry, looked up): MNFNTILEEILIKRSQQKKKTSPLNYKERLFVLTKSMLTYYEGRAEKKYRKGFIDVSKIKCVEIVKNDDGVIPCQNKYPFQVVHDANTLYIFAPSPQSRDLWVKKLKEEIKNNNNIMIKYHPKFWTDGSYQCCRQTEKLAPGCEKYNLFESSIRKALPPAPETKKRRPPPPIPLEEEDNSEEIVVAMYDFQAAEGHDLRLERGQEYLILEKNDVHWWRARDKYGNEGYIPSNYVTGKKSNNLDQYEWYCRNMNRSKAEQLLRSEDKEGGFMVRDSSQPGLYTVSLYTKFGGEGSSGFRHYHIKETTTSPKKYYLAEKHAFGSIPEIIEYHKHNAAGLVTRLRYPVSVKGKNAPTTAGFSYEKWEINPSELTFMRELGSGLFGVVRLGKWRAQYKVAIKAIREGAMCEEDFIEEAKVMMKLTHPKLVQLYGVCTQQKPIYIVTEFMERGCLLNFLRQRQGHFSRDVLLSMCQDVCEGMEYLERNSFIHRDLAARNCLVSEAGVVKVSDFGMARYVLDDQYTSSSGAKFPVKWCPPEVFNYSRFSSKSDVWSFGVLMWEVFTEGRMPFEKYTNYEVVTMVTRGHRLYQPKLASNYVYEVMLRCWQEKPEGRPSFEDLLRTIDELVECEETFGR
UniProt P17948, sequence (whole entry, looked up): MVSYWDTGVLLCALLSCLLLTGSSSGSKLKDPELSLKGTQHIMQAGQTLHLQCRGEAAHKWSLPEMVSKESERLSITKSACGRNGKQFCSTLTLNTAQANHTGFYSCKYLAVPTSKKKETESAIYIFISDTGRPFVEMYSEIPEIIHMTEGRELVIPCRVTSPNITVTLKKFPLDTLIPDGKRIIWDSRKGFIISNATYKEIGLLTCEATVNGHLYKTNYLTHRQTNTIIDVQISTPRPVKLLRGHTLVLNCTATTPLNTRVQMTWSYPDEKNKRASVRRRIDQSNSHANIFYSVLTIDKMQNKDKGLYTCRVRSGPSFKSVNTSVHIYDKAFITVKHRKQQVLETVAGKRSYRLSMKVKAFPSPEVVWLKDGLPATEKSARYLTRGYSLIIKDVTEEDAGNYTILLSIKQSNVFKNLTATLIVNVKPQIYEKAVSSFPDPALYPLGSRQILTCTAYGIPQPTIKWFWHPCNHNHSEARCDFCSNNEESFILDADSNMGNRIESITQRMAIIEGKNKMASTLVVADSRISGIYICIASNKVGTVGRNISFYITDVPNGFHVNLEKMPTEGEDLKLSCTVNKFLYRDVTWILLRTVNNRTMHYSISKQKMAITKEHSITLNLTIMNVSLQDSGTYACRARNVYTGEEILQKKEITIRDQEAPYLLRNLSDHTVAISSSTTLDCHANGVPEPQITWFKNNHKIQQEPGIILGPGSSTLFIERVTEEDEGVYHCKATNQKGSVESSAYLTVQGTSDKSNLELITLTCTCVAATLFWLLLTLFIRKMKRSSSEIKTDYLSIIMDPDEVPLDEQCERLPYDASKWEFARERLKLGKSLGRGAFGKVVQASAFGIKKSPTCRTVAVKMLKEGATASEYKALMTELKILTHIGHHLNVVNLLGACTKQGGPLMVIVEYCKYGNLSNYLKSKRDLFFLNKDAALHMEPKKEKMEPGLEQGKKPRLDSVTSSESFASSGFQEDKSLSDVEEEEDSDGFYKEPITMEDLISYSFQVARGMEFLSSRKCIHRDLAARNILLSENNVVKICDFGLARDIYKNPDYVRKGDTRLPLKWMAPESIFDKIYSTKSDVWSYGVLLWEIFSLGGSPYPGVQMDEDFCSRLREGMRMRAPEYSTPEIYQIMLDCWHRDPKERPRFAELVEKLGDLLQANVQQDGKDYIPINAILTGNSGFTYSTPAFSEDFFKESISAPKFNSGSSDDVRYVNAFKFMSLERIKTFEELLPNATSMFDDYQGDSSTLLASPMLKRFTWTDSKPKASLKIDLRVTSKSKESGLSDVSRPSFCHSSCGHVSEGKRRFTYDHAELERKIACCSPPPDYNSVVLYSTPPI
UniProt P51812, sequence (whole entry, looked up): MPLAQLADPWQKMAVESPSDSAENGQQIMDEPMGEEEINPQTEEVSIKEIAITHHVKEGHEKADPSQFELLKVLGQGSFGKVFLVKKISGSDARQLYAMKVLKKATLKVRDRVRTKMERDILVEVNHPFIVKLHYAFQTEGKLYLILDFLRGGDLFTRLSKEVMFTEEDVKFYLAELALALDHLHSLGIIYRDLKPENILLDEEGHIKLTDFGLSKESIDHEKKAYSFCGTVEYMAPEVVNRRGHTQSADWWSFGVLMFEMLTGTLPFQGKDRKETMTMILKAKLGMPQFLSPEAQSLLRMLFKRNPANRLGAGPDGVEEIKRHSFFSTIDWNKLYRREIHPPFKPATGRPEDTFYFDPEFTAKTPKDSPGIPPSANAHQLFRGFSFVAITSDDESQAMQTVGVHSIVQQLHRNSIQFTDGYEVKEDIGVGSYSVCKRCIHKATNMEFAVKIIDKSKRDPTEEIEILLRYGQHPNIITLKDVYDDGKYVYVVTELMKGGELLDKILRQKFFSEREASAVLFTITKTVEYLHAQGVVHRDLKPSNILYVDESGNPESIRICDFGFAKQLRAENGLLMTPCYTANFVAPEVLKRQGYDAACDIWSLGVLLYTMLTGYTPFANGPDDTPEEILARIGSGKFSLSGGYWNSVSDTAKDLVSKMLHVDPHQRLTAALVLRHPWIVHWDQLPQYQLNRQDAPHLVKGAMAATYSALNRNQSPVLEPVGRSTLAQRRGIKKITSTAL
UniProt P07947, sequence (whole entry, looked up): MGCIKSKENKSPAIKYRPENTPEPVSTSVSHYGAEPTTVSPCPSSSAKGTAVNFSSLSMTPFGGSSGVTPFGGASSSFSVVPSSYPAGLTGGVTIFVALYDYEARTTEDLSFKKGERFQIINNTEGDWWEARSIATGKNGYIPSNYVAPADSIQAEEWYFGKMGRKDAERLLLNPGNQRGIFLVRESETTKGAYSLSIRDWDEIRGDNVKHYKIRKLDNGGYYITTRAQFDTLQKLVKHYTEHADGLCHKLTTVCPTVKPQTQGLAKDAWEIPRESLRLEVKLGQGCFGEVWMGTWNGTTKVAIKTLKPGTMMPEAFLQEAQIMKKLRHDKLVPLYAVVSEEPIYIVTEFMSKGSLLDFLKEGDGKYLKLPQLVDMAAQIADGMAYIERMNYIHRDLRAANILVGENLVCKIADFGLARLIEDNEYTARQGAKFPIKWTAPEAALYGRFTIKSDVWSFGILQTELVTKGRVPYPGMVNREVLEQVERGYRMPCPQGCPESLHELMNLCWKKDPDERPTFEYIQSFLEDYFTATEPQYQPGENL
UniProt Q8IWQ3, sequence (whole entry, looked up): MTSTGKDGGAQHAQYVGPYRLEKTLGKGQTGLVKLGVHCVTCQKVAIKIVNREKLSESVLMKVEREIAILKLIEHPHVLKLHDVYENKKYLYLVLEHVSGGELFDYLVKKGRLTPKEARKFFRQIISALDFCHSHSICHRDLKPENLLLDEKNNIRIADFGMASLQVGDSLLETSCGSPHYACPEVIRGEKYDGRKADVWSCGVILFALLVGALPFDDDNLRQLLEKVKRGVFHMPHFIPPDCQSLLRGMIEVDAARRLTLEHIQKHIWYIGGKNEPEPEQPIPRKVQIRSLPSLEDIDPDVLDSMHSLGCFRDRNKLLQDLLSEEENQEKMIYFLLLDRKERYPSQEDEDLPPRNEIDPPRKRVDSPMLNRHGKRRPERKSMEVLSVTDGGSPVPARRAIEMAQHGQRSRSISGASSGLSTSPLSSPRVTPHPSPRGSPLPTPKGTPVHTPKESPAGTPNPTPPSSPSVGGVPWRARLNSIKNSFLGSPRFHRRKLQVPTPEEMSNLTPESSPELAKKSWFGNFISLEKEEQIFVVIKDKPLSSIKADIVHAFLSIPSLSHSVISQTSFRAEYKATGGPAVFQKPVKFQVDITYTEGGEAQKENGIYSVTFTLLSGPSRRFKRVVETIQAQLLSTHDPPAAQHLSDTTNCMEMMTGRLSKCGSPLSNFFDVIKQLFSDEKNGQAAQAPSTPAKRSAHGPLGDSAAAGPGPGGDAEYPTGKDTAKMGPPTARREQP
UniProt Q00535, sequence (whole entry, looked up): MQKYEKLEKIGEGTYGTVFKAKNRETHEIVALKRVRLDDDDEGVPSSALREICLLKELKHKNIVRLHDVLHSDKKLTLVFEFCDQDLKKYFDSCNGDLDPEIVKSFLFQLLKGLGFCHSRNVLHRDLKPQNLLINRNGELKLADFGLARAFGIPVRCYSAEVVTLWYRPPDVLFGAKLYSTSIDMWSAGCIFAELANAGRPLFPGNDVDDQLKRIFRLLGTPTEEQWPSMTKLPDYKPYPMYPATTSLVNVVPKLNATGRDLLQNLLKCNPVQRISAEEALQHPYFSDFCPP
UniProt Q15349, sequence (whole entry, looked up): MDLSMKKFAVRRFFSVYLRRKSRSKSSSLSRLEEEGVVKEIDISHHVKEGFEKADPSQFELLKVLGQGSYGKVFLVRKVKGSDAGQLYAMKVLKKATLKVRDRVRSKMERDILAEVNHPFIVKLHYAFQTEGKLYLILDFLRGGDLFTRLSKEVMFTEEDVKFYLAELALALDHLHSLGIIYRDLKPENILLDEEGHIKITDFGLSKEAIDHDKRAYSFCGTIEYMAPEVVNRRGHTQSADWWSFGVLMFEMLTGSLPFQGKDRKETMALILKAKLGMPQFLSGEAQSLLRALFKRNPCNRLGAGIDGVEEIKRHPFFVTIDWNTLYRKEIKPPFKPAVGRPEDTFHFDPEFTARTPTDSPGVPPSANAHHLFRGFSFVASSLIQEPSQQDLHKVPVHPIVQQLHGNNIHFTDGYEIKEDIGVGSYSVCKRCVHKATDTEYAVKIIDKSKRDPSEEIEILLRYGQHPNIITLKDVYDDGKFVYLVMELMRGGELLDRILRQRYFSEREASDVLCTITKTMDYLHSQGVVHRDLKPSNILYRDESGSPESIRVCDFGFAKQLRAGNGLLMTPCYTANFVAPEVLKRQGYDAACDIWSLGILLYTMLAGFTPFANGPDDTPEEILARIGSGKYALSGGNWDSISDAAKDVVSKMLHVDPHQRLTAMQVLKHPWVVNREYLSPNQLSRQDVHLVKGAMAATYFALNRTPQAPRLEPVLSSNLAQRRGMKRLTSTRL

Block 1
SMILES: CC(C)CC(=O)N1CCc2nc(-c3ccc(Br)cc3)nc(N(C)Cc3ccccc3)c2C1
Effect on: cell-free assay
Technique: competition with immobilised ligand
Concentration: 0.1 µM
The remaining binding was 100% (Proto-oncogene tyrosine-protein kinase ROS (ROS1, Homo sapiens, UniProt P08922)).
Ribosomal protein S6 kinase alpha-2, N-terminal kinase domain (RPS6KA2, Homo sapiens, UniProt Q15349) — remaining binding: 100%.
Serine/threonine-protein kinase Sgk1 (SGK1, Homo sapiens, UniProt O00141) — remaining binding: 99%.
Mitogen-activated protein kinase kinase kinase kinase 5 (MAP4K5, Homo sapiens, UniProt Q9Y4K4) — remaining binding: 93%.
For Mitogen-activated protein kinase kinase kinase 10 (MAP3K10, Homo sapiens, UniProt Q02779): remaining binding read 96%.

Block 2
Host: human
Sample: microsomes or S9
Concentration: 2 µM
Time: 0.5 h
The remaining compound of `CC1=C(C#N)C(c2ccc(C(C)C)cc2)C2=C(O)c3ccccc3C2=N1` (centres unmarked) is reported as 3.97%.
The remaining compound of `COC(=O)c1ccccc1NC(=O)c1c(OC)cc(=O)n2c1CCCC2` is reported as 40.7%.
`Cc1cc(C)[nH]/c(=N\N=C\C2=C(O)CC(C)CC2=O)n1` (centres unmarked) has a remaining compound of 80.7%.
`CCN(CC)C(=O)c1nc2cc(-c3ccc(C#N)cc3)sc2c(=O)[nH]1` has a remaining compound of 77.1%.
With `CS(=O)(=O)N1CCC(Nc2nc(Cl)ncc2F)C1` (centres unmarked) the remaining compound was 98.4%.

Block 3
Compound: O=C(Nc1ccc(Cl)cc1)c1ccccc1NCc1ccncc1
Effect on: enzyme activity
Action: inhibitor
Concentration: 0.5 µM
Reference: control
It gave 98.7% for remaining activity (Receptor tyrosine-protein kinase erbB-2 (ERBB2, Homo sapiens, UniProt P04626)).
It gave 102% for remaining activity (Dual specificity protein kinase CLK1 (CLK1, Homo sapiens, UniProt P49759)).
Cyclin-dependent kinase 5, with p35 (CDK5, Homo sapiens, UniProt Q00535) — remaining activity: 90.4%.
For Dual specificity tyrosine-phosphorylation-regulated kinase 1A (DYRK1A, Homo sapiens, UniProt Q13627): remaining activity read 97.1%.
Mitogen-activated protein kinase kinase kinase 20 (MAP3K20, Homo sapiens, UniProt Q9NYL2) — remaining activity: 86%.
The remaining activity was 98.9% (Activin receptor type-1-like (ACVRL1, Homo sapiens, UniProt P37023)).
It gave 24.8% for remaining activity (Vascular endothelial growth factor receptor 1 (FLT1, Homo sapiens, UniProt P17948)).
It gave 96.5% for remaining activity (Tyrosine-protein kinase JAK2 (JAK2, Homo sapiens, UniProt O60674)).
The remaining activity was 79.4% (Serine/threonine-protein kinase PAK 5 (PAK5, Homo sapiens, UniProt Q9P286)).
Casein kinase I isoform epsilon (CSNK1E, Homo sapiens, UniProt P49674) — remaining activity: 92.5%.
It gave 98.1% for remaining activity (Casein kinase I isoform delta (CSNK1D, Homo sapiens, UniProt P48730)).
Serine/threonine-protein kinase Sgk2 (SGK2, Homo sapiens, UniProt Q9HBY8) — remaining activity: 103%.
For Serine/threonine-protein kinase BRSK2 (BRSK2, Homo sapiens, UniProt Q8IWQ3): remaining activity read 102%.
For Protein kinase C theta type (PRKCQ, Homo sapiens, UniProt Q04759): remaining activity read 110%.
Tyrosine-protein kinase Fes/Fps (FES, Homo sapiens, UniProt P07332) — remaining activity: 96.6%.
The remaining activity was 134% (Tyrosine-protein kinase Tec (TEC, Homo sapiens, UniProt P42680)).
It gave 94.7% for remaining activity (Serine/threonine-protein kinase MARK1 (MARK1, Homo sapiens, UniProt Q9P0L2)).
For Cyclin-dependent kinase 2, with cyclin E (CDK2, Homo sapiens, UniProt P24941): remaining activity read 94.3%.
For Serine/threonine-protein kinase PAK 4 (PAK4, Homo sapiens, UniProt O96013): remaining activity read 90.6%.
It gave 103% for remaining activity (Calcium/calmodulin-dependent protein kinase type 1 (CAMK1, Homo sapiens, UniProt Q14012)).
It gave 91.4% for remaining activity (Ribosomal protein S6 kinase alpha-3 (RPS6KA3, Homo sapiens, UniProt P51812)).
It gave 105% for remaining activity (Tyrosine-protein kinase receptor TYRO3 (TYRO3, Homo sapiens, UniProt Q06418)).
It gave 109% for remaining activity (SRSF protein kinase 1 (SRPK1, Homo sapiens, UniProt Q96SB4)).
Tyrosine-protein kinase JAK1 (JAK1, Homo sapiens, UniProt P23458) — remaining activity: 91.8%.
It gave 95.3% for remaining activity (Tyrosine-protein kinase Yes (YES1, Homo sapiens, UniProt P07947)).

Block 4
Target: RING finger protein unkempt homolog, zinc fingers 1-6, GST-SBP tag (UNK, Homo sapiens, UniProt Q9C0B0, residues 30-357)
Technique: RNA Bind-n-Seq
Form: RNA
Sample: in vitro
Concentration: not given
Setting: RNA with constant flanks, human and mouse sites, ends assumed
Reference: input RNA pool
Direction: higher = stronger binding
Residues (chain): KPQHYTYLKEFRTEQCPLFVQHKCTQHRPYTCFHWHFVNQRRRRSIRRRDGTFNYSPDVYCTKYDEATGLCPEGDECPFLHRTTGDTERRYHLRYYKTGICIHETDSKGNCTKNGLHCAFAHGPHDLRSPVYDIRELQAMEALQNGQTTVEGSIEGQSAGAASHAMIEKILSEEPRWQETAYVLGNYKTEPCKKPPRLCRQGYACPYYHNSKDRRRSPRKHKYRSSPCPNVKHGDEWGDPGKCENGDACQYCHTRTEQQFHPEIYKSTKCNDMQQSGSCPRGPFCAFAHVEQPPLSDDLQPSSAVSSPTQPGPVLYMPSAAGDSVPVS
With `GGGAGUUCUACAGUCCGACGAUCUUGCCGGCUGAAGAAGGAAAAACCUUGCUGGAACUUGUGAUUGAGCAGUUUGAAGACUUACUAGUUAGAAUUUUACUGCUGGCAGCAUGUAUAUCUUUCGUUUUGGCUUGGUUCGAGGAACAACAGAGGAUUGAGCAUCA` the bound/input enrichment was 0.591 ratio.
`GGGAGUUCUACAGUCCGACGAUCGACGAGAUCGACGAGUGUGUCCGGAAUAUCGAGCGGUCCCUGUCGGUGGGAAGCGAAUUUUCCAGCGAGCUGGCUGAGAGCGCAUGCGAGGAGAAGCCCAACUUCAACUUCAGCCAGCCCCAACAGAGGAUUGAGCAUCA` has a bound/input enrichment of 0.0961 ratio.
The bound/input enrichment of `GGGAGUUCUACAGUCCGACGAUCGGGCUGUGUAGAGUAGGGCCCUGUUCUCCUUAGGAUGUUGCUUCUUGAUUUUUUUUUUUUUUUAGGGGUGGGUCAGGGUUGUGACACACCAGCCCAGGUGAGAGCUGCUGCGGGUCACCUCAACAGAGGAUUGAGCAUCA` is reported as 8.8 ratio.
`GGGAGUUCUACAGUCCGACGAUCGUGAACCCAGUGGAGUUCUGCCGCCGCGACAUUCCUCUGCUGGACAGGGACAACAUUGGAUUGGUUUUACUCCUGCAGCCCAAGAUCCCACGCGCUGCCUCUCCAUCCAUCUGCAUAGCUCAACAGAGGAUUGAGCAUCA` gave a bound/input enrichment of 0.246 ratio.
The bound/input enrichment of `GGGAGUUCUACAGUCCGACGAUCGGCCCGGCUGCGGCUGGAGGCCACGCGCCUCAGAGUUUGCUAUUGCGAAUACUGACCCCUAGCUUUGAAGGUAUUAGCGGAUUGUUACUGAAACAGCAUAUAGUUCCAAAUGCAGUCAGACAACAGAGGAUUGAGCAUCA` is reported as 0.186 ratio.
With `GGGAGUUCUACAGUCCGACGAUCUUACAGAUGCAUGGAAAACAAAGUCUCCAAGAAAACACUUCUGUCUUGAUGGUCUAUGGAAAUAGACCUUGAAAAUAAGGUGUCUACAAGGUGUUUUGUGGUUUCUGUAUUUCUUCUUUUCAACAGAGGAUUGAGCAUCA` the bound/input enrichment was 0.0979 ratio.
The bound/input enrichment of `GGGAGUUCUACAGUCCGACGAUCCGUACCCUCAAUAAGGUUGCCAUGAAGCAUCCGUCAGCUGUGACAGCUUGUAAUCUGGAUCUGGAGAACCUGGUCACAGAUUCAAACCGCAGCAUUGCCACGCUGGCCAUCACCACCCUCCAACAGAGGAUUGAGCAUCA` is reported as 0.165 ratio.
For `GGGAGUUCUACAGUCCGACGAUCAGCUUCCGCCCGGAGGACUCCCUCAUUAGCAAUGACUCAGAAGUCAUCAUAGAGCCCAAGGAACAACUAGGACAUCAUGAUUCUCAGCAUUUGGAUAAAUUUGACAUUCCUUUUGAAAUGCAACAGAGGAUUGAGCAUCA`, the bound/input enrichment was 3.98 ratio.

Block 5
Cell line: HaCaT
Concentration: 100 µM
Time: 18 h
`C=CC(=O)N1CCC[C@@H](n2nc(-c3ccc(Oc4ccccc4)cc3)c3c(N)ncnc32)C1` has a viability of 15.6%.
The viability of `CC[C@H]1[C@@H](O)[C@@H]2[C@H](CC[C@]3(C)[C@@H]([C@H](C)CCC(=O)O)CC[C@@H]23)[C@@]2(C)CC[C@@H](O)C[C@@H]12` is reported as 38.2%.
`NCCCC(N)(C(=O)O)C(F)F` (centres unmarked) gave a viability of 99%.
For `O=C(Nc1ccc(Cl)cc1)c1cc(Br)ccc1O`, the viability was 33.5%.
The viability of `Cc1c(Nc2ncccc2C(=O)O)cccc1C(F)(F)F` is reported as 84.6%.
The viability of `Cc1cn([C@H]2C[C@H](N=[N+]=[N-])[C@@H](CO)O2)c(=O)[nH]c1=O` is reported as 96%.
The viability of `Nc1cc(-c2ccncc2)c[nH]c1=O` is reported as 113%.

Further values, each from its own experiment
`CCOC(=O)[C@@H]1CSCC(=O)N[C@H](CC)C(=O)N(C)[C@@H](C)C(=O)N[C@@H](CC(C)C)C(=O)N2CCC[C@@H]2C(=O)N(CC(C)C)CC(=O)N[C@H](CC(C)C)C(=O)N(C)[C@@H](C)C(=O)N[C@@H](CC(C)C)C(=O)N1C` has a logD of 0.837 (hydrocarbon/water).
With `c1ccc2c(-c3nn4c(-c5ccncc5)nnc4s3)c[nH]c2c1` the reporter signal was 191% and 178% and 195% and 228% and 185% and 220% and 201% (HEK293T ATF4-firefly luciferase reporter; integrated stress response, item: ATF4; 10 µM, without ISRIB; reference: DMSO).
`COc1ccc(-c2c(Nc3ccccn3)[nH]c3c(C4=CCCCC4)c(-c4ccccc4)nn3c2=O)cc1` gave an SDMA H-score of 180 (immunohistochemistry; human, tumour biopsy; 200 mg twice daily, cycle 1 day 28; direction not given).

Excerpt of the above (block 3):
It gave 95.3% for remaining activity (Tyrosine-protein kinase Yes (YES1, Homo sapiens, UniProt P07947)).
Tyrosine-protein kinase JAK1 (JAK1, Homo sapiens, UniProt P23458) — remaining activity: 91.8%.
It gave 96.5% for remaining activity (Tyrosine-protein kinase JAK2 (JAK2, Homo sapiens, UniProt O60674)).
It gave 105% for remaining activity (Tyrosine-protein kinase receptor TYRO3 (TYRO3, Homo sapiens, UniProt Q06418)).
Mitogen-activated protein kinase kinase kinase 20 (MAP3K20, Homo sapiens, UniProt Q9NYL2) — remaining activity: 86%.
It gave 103% for remaining activity (Calcium/calmodulin-dependent protein kinase type 1 (CAMK1, Homo sapiens, UniProt Q14012)).
For Serine/threonine-protein kinase PAK 4 (PAK4, Homo sapiens, UniProt O96013): remaining activity read 90.6%.
It gave 94.7% for remaining activity (Serine/threonine-protein kinase MARK1 (MARK1, Homo sapiens, UniProt Q9P0L2)).
The remaining activity was 134% (Tyrosine-protein kinase Tec (TEC, Homo sapiens, UniProt P42680)).
